Published values pooled from the literature.
Protocols differ between the studies behind these lines. Several values in a cell are separate wells, animals, samples, runs or records. ± marks the error that the study gave.

Compound	assay	test system	conditions	endpoint	value
CSCC[C@H](NC(=O)[C@H](CCCCN)NC(=O)[C@H](CCCNC(=N)N)NC(=O)[C@H](CO)NC(=O)[C@H](Cc1c[nH]c2ccccc12)NC(=O)[C@H](CCCNC(=N)N)NC(=O)[C@H](CC(C)C)NC(=O)[C@H](CO)NC(C)=O)C(=O)N1CCC[C@H]1C(=O)N[C@@H](CS)C(=O)N[C@H](C(=O)N[C@@H](CO)C(N)=O)C(C)C	12G5 competition, SUP-T1 cells	human plasma	20 µM, 2 h, 37 °C	remaining activity	77 ± 9%
CC(C)[C@@H]1NC(=O)CNC(=O)[C@H](CC(N)=O)NC(=O)[C@H](CCCNC(=N)N)NC(=O)[C@H](Cc2ccc(O)cc2)NC(=O)[C@H](C(C)C)NC(=O)[C@@H](NC(=O)[C@@H](NC(=O)[C@H](CC(N)=O)NC(=O)[C@H](Cc2c[nH]c3ccccc23)NC(=O)[C@H](C)NC(=O)[C@H](Cc2ccccc2)NC(=O)CN)C(C)C)CSSC[C@@H](C(=O)N[C@@H](Cc2cnc[nH]2)C(=O)N[C@@H](CCCNC(=N)N)C(=O)N[C@@H](CCCNC(=N)N)C(=O)N[C@@H](C)C(=O)N[C@@H](CC(N)=O)C(N)=O)NC(=O)[C@H](C(C)C)NC(=O)[C@H](CCCNC(=N)N)NC1=O	HPLC	mouse kidney homogenate	2560 µM, 2.00 h, 37 °C, 50 mg/mL tissue	remaining peptide	43% and 55.7%
CCCCN1CCC(COC(=O)c2ccc(N)c(O[11CH3])c2)CC1		phosphate buffer	up to 2.5 h, room temperature	remaining radioligand	94.7 ± 0.7%
CC(C)C[C@@H]1NC(=O)CNC(=O)[C@H](CC(N)=O)NC(=O)[C@H](CCCNC(=N)N)NC(=O)[C@H]([C@@H](C)O)NC(=O)[C@@H]2CSSC[C@@H]3NC(=O)[C@H]([C@@H](C)O)NC(=O)CNC(=O)[C@H](CCCCN)NC(=O)[C@H](C(C)C)NC(=O)[C@@H]4CSSC[C@H](NC(=O)[C@H]([C@@H](C)O)NC(=O)[C@H](CSSC[C@H](NC(=O)[C@H](C(C)C)NC(=O)[C@@H]5CCCN5C1=O)C(=O)NCC(=O)N[C@@H](CCC(=O)O)C(=O)N[C@@H]([C@@H](C)O)C(=O)N4)NC(=O)CNC(=O)[C@@H]1CCCN1C(=O)[C@H]([C@@H](C)O)NC(=O)[C@H](CC(N)=O)NC3=O)C(=O)N[C@@H](CO)C(=O)N[C@@H](Cc1c[nH]c3ccccc13)C(=O)N1CCC[C@H]1C(=O)N[C@@H](C(C)C)C(=O)N2	HPLC	ammonium bicarbonate	180 µM, 14 days, pH 9.0, 25 °C, deamidation stability	remaining peptide	92.5 ± 1.4%
CSCC[C@H](NC(=O)[C@H](N)Cc1ccccc1)C(=O)N[C@@H](CCCNC(=N)N)C(=O)N[C@@H](Cc1c[nH]c2ccccc12)C(=O)N[C@@H](CO)C(=O)N[C@@H](CCCNC(=N)N)C(=O)N[C@@H](CCCCN)C(=O)N[C@@H](CCSC)C(=O)N1CCC[C@H]1C(=O)N[C@@H](CS)C(=O)N[C@H](C(=O)N[C@@H](CO)C(N)=O)C(C)C	12G5 competition, SUP-T1 cells	human plasma	concentration not given, 8 h	remaining activity	46 ± 1%
CC(C)C[C@@H]1NC(=O)CNC(=O)[C@H](CC(N)=O)NC(=O)[C@H](CCCNC(=N)N)NC(=O)[C@H]([C@@H](C)O)NC(=O)[C@@H]2CSSC[C@@H]3NC(=O)[C@H]([C@@H](C)O)NC(=O)CNC(=O)CNC(=O)[C@H](C(C)C)NC(=O)[C@@H]4CSSC[C@H](NC(=O)[C@H]([C@@H](C)O)NC(=O)[C@H](CSSC[C@H](NC(=O)[C@H](C(C)C)NC(=O)[C@@H]5CCCN5C1=O)C(=O)NCC(=O)N[C@@H](CCCCN)C(=O)N[C@@H]([C@@H](C)O)C(=O)N4)NC(=O)CNC(=O)[C@@H]1CCCN1C(=O)[C@H]([C@@H](C)O)NC(=O)[C@H](CC(N)=O)NC3=O)C(=O)N[C@@H](CO)C(=O)N[C@@H](Cc1c[nH]c3ccccc13)C(=O)N1CCC[C@H]1C(=O)N[C@@H](C(C)C)C(=O)N2	HPLC	ammonium bicarbonate 0.1 M	180 µM, 7 days, pH 9.0, 37 °C, deamidation stability	remaining peptide	34.7%
CC[C@H](C)[C@H](N)C(=O)N[C@H](CC(C)C)C(=O)N[C@@H](CCCNC(=N)N)C(=O)N[C@@H](Cc1c[nH]c2ccccc12)C(=O)N[C@@H](CO)C(=O)N[C@@H](CCCNC(=N)N)C(=O)N[C@@H](CCCCN)C(=O)N[C@@H](CC(C)C)C(=O)N1CCC[C@H]1C(=O)N[C@@H](CS)C(=O)N[C@H](C(=O)N[C@@H](CO)C(N)=O)C(C)C	12G5 competition, SUP-T1 cells	human plasma	20 µM, 8 h, 37 °C	remaining activity	57 ± 11%
CCC[C@@](N)(CO)CCc1ccc(OCCCCCC(C)C)cc1		rat liver microsomes	1 h	remaining compound	31%
CC[C@@H](C)[C@@H](NC(=O)[C@@H](Cc1ccc(O)cc1)NC(=O)[C@H]1CCCN1C(=O)[C@@H](CCCNC(=N)N)NC(=O)[C@H](N)Cc1c[nH]cn1)C(=O)N[C@H](C)C(=O)N[C@H](Cc1c[nH]cn1)C(=O)N[C@H](CCCNC(=N)N)C(=O)N[C@@H](C(=O)N[C@H](Cc1ccc(O)cc1)C(=O)N[C@H](CO)C(=O)N[C@H](Cc1ccccc1)C(N)=O)C(C)C		10% human serum	6 h	remaining compound	99% and 98.8% and 97.7%
CC(=O)OC/C(C)=C/CCP(=O)(OCOC(=O)CC1CCCCC1)Oc1ccc(C(C)C)cc1 (centres unmarked)		50% CD1 mouse plasma	100 µM, 2 h, pH 7.5, 37 °C	remaining compound	0%
CC(C)C[C@@H]1NC(=O)CNC(=O)[C@H](CC(N)=O)NC(=O)[C@H](CCCNC(=N)N)NC(=O)[C@H]([C@@H](C)O)NC(=O)[C@@H]2CSSC[C@@H]3NC(=O)[C@H]([C@@H](C)O)NC(=O)CNC(=O)CNC(=O)[C@H](C(C)C)NC(=O)[C@@H]4CSSC[C@H](NC(=O)[C@H]([C@@H](C)O)NC(=O)[C@H](CSSC[C@H](NC(=O)[C@H](C(C)C)NC(=O)[C@@H]5CCCN5C1=O)C(=O)NCC(=O)N[C@@H](CCC(=O)O)C(=O)N[C@@H](CCCCN)C(=O)N4)NC(=O)CNC(=O)[C@@H]1CCCN1C(=O)[C@H]([C@@H](C)O)NC(=O)[C@H](CC(N)=O)NC3=O)C(=O)N[C@@H](CO)C(=O)N[C@@H](Cc1c[nH]c3ccccc13)C(=O)N1CCC[C@H]1C(=O)N[C@@H](C(C)C)C(=O)N2	HPLC	ammonium bicarbonate 0.1 M	180 µM, 14 days, pH 9.0, 37 °C, deamidation stability	remaining peptide	56 ± 3%
CC[C@H](C)[C@H](NC(=O)[C@H](CCCCN)NC(=O)[C@H](CCCCN)NC(=O)CNC(=O)[C@H](CCCCN)NC(=O)[C@H](CC(C)C)NC(=O)[C@H](CCCCN)NC(=O)[C@H](CCCNC(=N)N)NC(=O)[C@@H](NC(=O)[C@H](CC(C)C)NC(=O)[C@H](CCCNC(=N)N)NC(=O)[C@@H](N)CCCNC(=N)N)[C@@H](C)CC)C(=O)N[C@@H](Cc1ccc(O)cc1)C(=O)N[C@@H](CC(C)C)C(=O)N[C@@H](Cc1ccc(O)cc1)C(=O)N[C@@H](Cc1ccccc1)C(=O)N[C@@H](CCCCN)C(=O)N[C@@H](CC(C)C)C(=O)N[C@@H](CCC(N)=O)C(=O)N[C@@H](CC(C)C)C(=O)N[C@@H](CC(C)C)C(=O)N[C@@H](CCCCN)C(=O)N[C@@H](CCCCN)C(N)=O	LC-MS	25% human serum	200 µM, 60 h, 37 °C	remaining intact peptide	74 ± 3%
CC(C)(C)[C@H](NC(=O)C(F)(F)F)C(=O)N1C[C@H]2[C@@H]([C@H]1C(=O)N[C@H](C#N)C[C@@H]1CCNC1=O)C2(C)C		mouse liver microsomes	60 min, with: NADPH	remaining compound	5.9%
CC(C)C[C@@H]1NC(=O)CNC(=O)[C@H](CC(N)=O)NC(=O)[C@H](CCCNC(=N)N)NC(=O)[C@H]([C@@H](C)O)NC(=O)[C@@H]2CSSC[C@@H]3NC(=O)[C@H]([C@@H](C)O)NC(=O)CNC(=O)CNC(=O)[C@H](C(C)C)NC(=O)[C@@H]4CSSC[C@H](NC(=O)[C@H]([C@@H](C)O)NC(=O)[C@H](CSSC[C@H](NC(=O)[C@H](C(C)C)NC(=O)[C@@H]5CCCN5C1=O)C(=O)NCC(=O)N[C@@H](CCC(=O)O)C(=O)N[C@@H]([C@@H](C)O)C(=O)N4)NC(=O)CNC(=O)[C@@H]1CCCN1C(=O)[C@H]([C@@H](C)O)NC(=O)[C@H](CCCCN)NC3=O)C(=O)N[C@@H](CO)C(=O)N[C@@H](Cc1c[nH]c3ccccc13)C(=O)N1CCC[C@H]1C(=O)N[C@@H](C(C)C)C(=O)N2	HPLC	water	180 µM, 14 days, 37 °C, deamidation stability	remaining peptide	99 ± 0.2%
